Measurements collected from several papers.
Parts stem from different laboratories: compare values within a part only. Positions count from the first letter of the parent shown.

Block 1
Target: RING finger protein unkempt homolog, zinc fingers 1-6, GST-SBP tag (UNK, Homo sapiens, UniProt Q9C0B0, residues 30-357)
UniProt Q9C0B0, sequence (30-357, looked up): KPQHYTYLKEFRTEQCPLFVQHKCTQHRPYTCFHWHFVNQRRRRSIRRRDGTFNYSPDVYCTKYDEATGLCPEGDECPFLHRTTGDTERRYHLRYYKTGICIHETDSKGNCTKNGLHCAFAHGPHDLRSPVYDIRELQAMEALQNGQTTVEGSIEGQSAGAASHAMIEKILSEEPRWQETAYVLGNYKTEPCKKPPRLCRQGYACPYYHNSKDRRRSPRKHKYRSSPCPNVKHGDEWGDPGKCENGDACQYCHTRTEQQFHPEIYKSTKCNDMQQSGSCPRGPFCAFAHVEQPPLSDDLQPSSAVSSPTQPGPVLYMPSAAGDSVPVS
Method: RNA Bind-n-Seq
Form: RNA
Matrix: in vitro
Concentration: not given
Setting: RNA with constant flanks, human-mouse chimeric sites, ends assumed
Reference: input RNA pool
Reading: higher = stronger binding
Constant ends, left off below: GGGAGUUCUACAGUCCGACGAUC … CAACAGAGGAUUGAGCAUCA
| Sequence | bound/input enrichment [ratio] |
| --- | --- |
| GUAGCUGGGACUACAGAAAUGCUGGUAAUUUCAGUCACUUGCUGAUGACUUCUGAUGACCUAGCAAAUGUUGGCAUUGUUGACUGCUCUGUGAAGACUUCUGAGGACCCACGUCUAAGGU | 0.131 |
| CUUAAUGUUAAUAUUUUUGAAUAAAUGAAGCUAAAAUUUUGCUUUCUGGUACAACACGCAUUAAUAAAAGGUUAAGUUUUGUUUUCCACUGAAGUACGUAAUACUUACUCAGAAAAAAAC | 0.567 |
| GAGCCCAGCCGGCAGUUUGUAAAGGACUCAAUUCGGCUGGUUAAAAGAUGCACCAAACCCGACAGAAAAGAAUUCCAGAAGAUUGCCAUGGCAACAGCUAUAGGAUUUGCUAUAAUGGGA | 0.325 |
| CUGUGACCACAAGAUCCUACCUGAGUGGCAGCUGAAGUUGACUCCCUCUCCUUGCCUGCCUAGUUUCCCACUGCCCCCCCAUCCCCCAGUGUCGGCUAUUCUCUGGUCUCUGCACGGUUC | 0.913 |
| GGACAUCUGUCAAAUUGUUAUGUUCCUGUGAAACAAGUGAACACUCUUCAUAUACUAAUCUGCUUGUACAUCUGUAUGAUAGAGAAAUGUAAAUAUGUUAAUCCAAGAUGAAUUCAACUU | 0.307 |
| GAAAGAGAACUAAAGCAACUAAUAGAGAAGAGGAUUGGCAAAGAGAAUUUCAUAGAGAAACUAGGAUUUUAUUAGCAACAUGAGUUAUAUUCCAGAGCGUCUCAGAAACCCCAGCCAAAC | 9.21 |
| CAGCGCCGAGGCCGCGGGUGCCCGCCGGGCCUCCCCAGCAGCAGCCAUGGGCAUCAAAUUUUUAGAAGUUAUCAAACCUUUCUGUGCAGUUCUACCAGAAAUUCAGAAACCGGAAAGGAA | 1.59 |
| ACCAUUUUCGCGGUUCAGGCUUUGUGUGUAGUUCACUCUAUGUAUUAAAUUAUUAUUCUGCUUAGCUUAUAAUAAGGAUAAUUGCAUUUAAAGAGGUGAUCACUGAAUACUCUGAAACUU | 0.442 |
| AGCACAACCCCAGCAAAGCUCAGGAACCCUUGUACAAGUGAACAAAACUGCACCAGCCCAUUUAGCUACAAAAAUGUGCUUAGUCUUACUAAUAAAGGAGAGUUUUUCAAUGAACUUGUU | 0.621 |
| UUUGUUUGUAACUUAUCUCUGUAAAAGUCCCCCCCCCUACUGUCAAAAAAUAUGCAUGUAUAGUAAUUAGGACUUCAUUCCUCCAUGUUUUCUUCCCUUAUCUUACUGUCAUUGUCCUUA | 2.65 |
| ACUCAGAGAUCCACCUCCCAAAGUGCUGGGAGUAAAGGUGUGGCCACUCAAUUCUCCUUGAUGGAUAUAUAUUUUUUUUAAUAUGAAUCUUCCUGUUCUUCAUCCAGAGAAAGAUUUGUU | 0.477 |

Block 2
Target: Fragile X messenger ribonucleoprotein 1, C-terminal low-complexity region (Fmr1, Mus musculus, UniProt P35922)
Method: RNA Bind-n-Seq
Form: RNA
Matrix: in vitro
Concentration: 200 nM
Setting: whole 134-nt RNA, ends assumed
With: 150 mM KCl
Reference: input library
Reading: higher = stronger binding
Constant ends, left off below: GGGAGUUCUACAGUCCGACGAUC … UGGAAUUCUCGGGUGUCAAGG
| Sequence | log2 enrichment |
| --- | --- |
| UCCUGUGCUACACAUCGUAUGUACCGAAUCGGGAAAAAAAGGGAAAAAAAGGGUUUGGGAAAGUAUUAUGUUACGCCGUUCGGAUCUGCA | -0.21 |
| GUGAAUCAAAAACUCUGGUUUUAAGCAACCUCUCCUACAGUGCAACAGAAGAAACUCUUCAGGAAGUAUUUGAGAAAGCAACUUUUAUCA | 1.18 |
| UCCUGUGCUACACAUCGUAUGUACCGAAUCGGGAAAAAAGGAAAAAAGGGAAAAAAGGGGAAAGUAUUAUGUUACGCCGUUCGGAUCUGC | -0.546 |
| GCAGGAAGUAAAAACACAUGGAAAUGCUUCGGAUAGUGGCAGGGGUGGGGGUUGCUAAGGAAAGGGUGGGAUGGGAGUGGGUAAAGAGUU | 0.0354 |
| CACAGACAACACGCACCCACACAGACACAGAGCGAAGGGGUUGGGAUGGGGACAGGGUGCACAGCAGGGCGGGGUAGGACCCCAGCCCCU | 1.34 |
| AGUCCUGUGCUACACAUCGUAUGUACCGAAUCGGUUUGGAAAAAAAGGAAAAAAAGGAAAGUAUUAUGUUACGCCGUUCGGAUCUGCACU | -0.773 |
| UCAAGUCCUGUGCUACACAUCGUAUGUACCGAAUCGGAGGAAAAAAAGGAAAGGAAAGUAUUAUGUUACGCCGUUCGGAUCUGCACUUCC | -0.543 |
| UCUUUAUUUGAGCCAGUCUUGCAAGGUUAACUUCUCACUGGGCCUAGUGUGGUGCCCAGGUUUUUGCCUUGCUUCACUUCUGUCUCUACA | -1.08 |
| GUCCUGUGCUACACAUCGUAUGUACCGAAUCGGGGUGGGGAAAAAGGGGUUUUUGGGGAAAGUAUUAUGUUACGCCGUUCGGAUCUGCAC | 0.58 |
| UGGGAGGUGGAUUUUGUUUAUUUUUUUAGCUCAUUUCCAGGGGUGGGAAUUUUUUUUUAUUAUGUGUCAUGAAUAAAGUUGUUUUUGAAA | 0.157 |
| UGGGAGGUGGUUUUUGUUUAUUUUUUUAGCUCAUUUCCAGGGGUGGGAAUUUUUUUUUAAUAUGUGUCAUGAAUAAAGUUGUUUUUGAAA | 0.512 |
| AAGUCCUGUGCUACACAUCGUAUGUACCGAAUCGGGCCCGGGGCCCGGGGCCCGGGAAAGUAUUAUGUUACGCCGUUCGGAUCUGCACUU | -0.804 |
| CCUCAAGUCCUGUGCUACACAUCGUAUGUACCGAAUCGGGUGGGGUGGGGUGGAAAGUAUUAUGUUACGCCGUUCGGAUCUGCACUUCCA | 1.05 |
| UAACUUUAGAGGAGGAUCUGAUGGAUAUGGCAGUGGACGUGGAUUUGGGGAUGGCUAUAAUGGGUAUGGAGGAGGACCUGGAGGUGACAA | 0.137 |

Block 3
Target: Phosphate system positive regulatory protein PHO4, full length, GST-tagged (PHO4, Saccharomyces cerevisiae, UniProt P07270, residues 1-312)
Method: competition protein-binding microarray
Form: double-stranded DNA, one strand shown
Matrix: in vitro
Concentration: 2 µM
Setting: whole 60-bp probe, lowest competitor level
With: Cbf1 competitor, 0.05 µM
Reading: higher = stronger binding
Constant ends, left off below: … GTCTTGATTCGCTTGACGCTGCTG
Construct (chain): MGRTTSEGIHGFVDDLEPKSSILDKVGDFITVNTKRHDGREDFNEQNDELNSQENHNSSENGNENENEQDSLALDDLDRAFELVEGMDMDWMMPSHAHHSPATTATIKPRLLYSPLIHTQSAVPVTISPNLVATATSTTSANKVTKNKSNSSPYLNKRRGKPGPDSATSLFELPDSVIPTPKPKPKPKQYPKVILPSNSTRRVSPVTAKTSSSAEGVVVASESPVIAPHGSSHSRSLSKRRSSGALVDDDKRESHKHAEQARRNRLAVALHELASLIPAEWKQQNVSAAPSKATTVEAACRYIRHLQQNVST
| Sequence | fluorescence intensity [a.u.] |
| --- | --- |
| AAGTACTATCATGGGCGCATGCCAGGTACCTAAGCC | 7500 |
| ACGTTTTGTCCAGATGTTCATCACCGAACAAACGTC | 5650 |
| CGTCCTAGTGATTGGACAGTGGGTGCCATGAGGAAG | 5770 |
| CCGCTAACAAATCCACACGTCGCACTGAAAGTGATA | 5670 |
| CATATCAGTGGTAGCAACGTGGTCGCACTGAAGAAT | 17100 |
| CAATCCGCAATTTAGCACGTGCCAGATCCCACCGAC | 19300 |
| TGCACTTATTATTACTACGTGGTGAATTTTCTCTTT | 7180 |
| CAACAAATAGTAGCTCGCGTGGCCGAATGGCAACGC | 7020 |
| GTCTTGTCTCATTGTGCCGTGGGTGTCCCCACTTCA | 6300 |
| CTAACGAAGGTTTGGCACGTGGGTGACAAGCCAAGT | 14900 |
| TGTTCTCGACGACAACTCGTGTCGGTTCCATGCTAT | 8240 |
| AAAGCGGTAATTTGTCACAAGACTTCACATATCTAT | 3940 |
| AAATTACTAAGTTTTCACGTGTCATACCCCGTATGA | 16600 |
| CGCGCAAGTGTTCACCACGTAATCGCATCGCCCCTC | 4980 |
| CCGCTCCCGGCTTGCCACGTGACAAGCCACAGTGTT | 15900 |
| CCTTGTCCAATTCAACACGCTCGATGAAAAAAATAA | 6640 |
| CATACCCAACCTTGTCCGGTGGGTGAAGATATTTGT | 3910 |
| AAATTACTAAGTTGATTAGTGGGTGACGCCGTATGA | 3790 |
| AACCAGCATTATTTGCACGCAAGGCCCATTGAAAAG | 5720 |

Block 4
Target: NFIL3, bZIP domain (human)
Method: DHFR protein complementation
Matrix: yeast
Setting: single substitutions, most at no-binding floor
Reference: wild-type JUN-FOS pair
Reading: higher = stronger binding
Parent: JUN, bZIP domain (human); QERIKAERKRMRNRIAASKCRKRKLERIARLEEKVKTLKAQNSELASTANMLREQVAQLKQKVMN; partner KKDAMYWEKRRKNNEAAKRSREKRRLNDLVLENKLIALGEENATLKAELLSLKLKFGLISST
| Variant | binding fitness [natural log] |
| --- | --- |
| Q55N | -1.44 |
| L52C | -1.43 |
| L38S | -1.48 |
| A46L | -1.52 |
| L31R | -1.43 |
| L31G | -1.51 |
| E54C | -1.53 |
| A46R | -1.39 |
| T48L | -1.43 |
| A29N | -1.47 |
| S43N | -1.59 |
| A46G | -1.47 |
| R53I | -1.41 |
| M51K | -1.57 |
| Q55T | -1.52 |
| A49G | -1.46 |
| N42I | -1.53 |
| K39G | -1.49 |
| S43L | -1.35 |
| S47H | -1.31 |
| T37L | -1.34 |
| R30F | -1.26 |
| A49V | -1.51 |
| I28V | -1.52 |

Excerpt of the above (block 1):
| Sequence | bound/input enrichment [ratio] |
| --- | --- |
| CUUAAUGUUAAUAUUUUUGAAUAAAUGAAGCUAAAAUUUUGCUUUCUGGUACAACACGCAUUAAUAAAAGGUUAAGUUUUGUUUUCCACUGAAGUACGUAAUACUUACUCAGAAAAAAAC | 0.567 |
| GAGCCCAGCCGGCAGUUUGUAAAGGACUCAAUUCGGCUGGUUAAAAGAUGCACCAAACCCGACAGAAAAGAAUUCCAGAAGAUUGCCAUGGCAACAGCUAUAGGAUUUGCUAUAAUGGGA | 0.325 |
| CUGUGACCACAAGAUCCUACCUGAGUGGCAGCUGAAGUUGACUCCCUCUCCUUGCCUGCCUAGUUUCCCACUGCCCCCCCAUCCCCCAGUGUCGGCUAUUCUCUGGUCUCUGCACGGUUC | 0.913 |
| GGACAUCUGUCAAAUUGUUAUGUUCCUGUGAAACAAGUGAACACUCUUCAUAUACUAAUCUGCUUGUACAUCUGUAUGAUAGAGAAAUGUAAAUAUGUUAAUCCAAGAUGAAUUCAACUU | 0.307 |
| GAAAGAGAACUAAAGCAACUAAUAGAGAAGAGGAUUGGCAAAGAGAAUUUCAUAGAGAAACUAGGAUUUUAUUAGCAACAUGAGUUAUAUUCCAGAGCGUCUCAGAAACCCCAGCCAAAC | 9.21 |
| CAGCGCCGAGGCCGCGGGUGCCCGCCGGGCCUCCCCAGCAGCAGCCAUGGGCAUCAAAUUUUUAGAAGUUAUCAAACCUUUCUGUGCAGUUCUACCAGAAAUUCAGAAACCGGAAAGGAA | 1.59 |
| ACCAUUUUCGCGGUUCAGGCUUUGUGUGUAGUUCACUCUAUGUAUUAAAUUAUUAUUCUGCUUAGCUUAUAAUAAGGAUAAUUGCAUUUAAAGAGGUGAUCACUGAAUACUCUGAAACUU | 0.442 |
| AGCACAACCCCAGCAAAGCUCAGGAACCCUUGUACAAGUGAACAAAACUGCACCAGCCCAUUUAGCUACAAAAAUGUGCUUAGUCUUACUAAUAAAGGAGAGUUUUUCAAUGAACUUGUU | 0.621 |
| UUUGUUUGUAACUUAUCUCUGUAAAAGUCCCCCCCCCUACUGUCAAAAAAUAUGCAUGUAUAGUAAUUAGGACUUCAUUCCUCCAUGUUUUCUUCCCUUAUCUUACUGUCAUUGUCCUUA | 2.65 |
| ACUCAGAGAUCCACCUCCCAAAGUGCUGGGAGUAAAGGUGUGGCCACUCAAUUCUCCUUGAUGGAUAUAUAUUUUUUUUAAUAUGAAUCUUCCUGUUCUUCAUCCAGAGAAAGAUUUGUU | 0.477 |
